Measurements from different studies.
Every numbered part comes from another study and shows a few of its results, in no order.
Chain of UniProt P25098 (whole entry, looked up): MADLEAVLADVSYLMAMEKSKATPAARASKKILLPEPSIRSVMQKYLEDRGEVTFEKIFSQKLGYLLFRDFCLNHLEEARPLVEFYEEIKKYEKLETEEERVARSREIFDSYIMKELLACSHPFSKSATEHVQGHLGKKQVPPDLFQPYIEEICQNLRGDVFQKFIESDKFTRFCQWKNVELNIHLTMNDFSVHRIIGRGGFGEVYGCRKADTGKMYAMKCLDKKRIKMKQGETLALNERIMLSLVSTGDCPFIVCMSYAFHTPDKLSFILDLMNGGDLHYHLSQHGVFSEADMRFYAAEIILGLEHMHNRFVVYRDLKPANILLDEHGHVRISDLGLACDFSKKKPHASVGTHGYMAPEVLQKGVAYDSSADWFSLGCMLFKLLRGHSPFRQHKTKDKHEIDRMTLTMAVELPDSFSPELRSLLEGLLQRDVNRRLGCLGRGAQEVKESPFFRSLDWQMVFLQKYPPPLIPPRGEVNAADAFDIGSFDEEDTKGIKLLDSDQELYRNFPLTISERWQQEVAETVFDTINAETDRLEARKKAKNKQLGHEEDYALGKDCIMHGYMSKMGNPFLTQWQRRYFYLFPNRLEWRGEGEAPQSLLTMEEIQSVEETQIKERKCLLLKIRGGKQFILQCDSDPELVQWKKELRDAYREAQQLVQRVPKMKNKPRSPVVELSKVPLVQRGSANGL
Chain of UniProt P27361 (whole entry, looked up): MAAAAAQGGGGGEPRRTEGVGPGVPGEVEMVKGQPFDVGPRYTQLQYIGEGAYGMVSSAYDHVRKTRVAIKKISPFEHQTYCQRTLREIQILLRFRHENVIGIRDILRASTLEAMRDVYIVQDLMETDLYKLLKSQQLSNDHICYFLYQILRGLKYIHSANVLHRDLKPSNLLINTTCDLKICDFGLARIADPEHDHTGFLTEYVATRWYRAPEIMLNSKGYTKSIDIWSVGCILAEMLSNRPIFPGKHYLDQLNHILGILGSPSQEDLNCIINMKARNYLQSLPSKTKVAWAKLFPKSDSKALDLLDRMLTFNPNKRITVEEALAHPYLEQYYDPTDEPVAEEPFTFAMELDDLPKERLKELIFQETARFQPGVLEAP
Chain of UniProt Q9P286 (whole entry, looked up): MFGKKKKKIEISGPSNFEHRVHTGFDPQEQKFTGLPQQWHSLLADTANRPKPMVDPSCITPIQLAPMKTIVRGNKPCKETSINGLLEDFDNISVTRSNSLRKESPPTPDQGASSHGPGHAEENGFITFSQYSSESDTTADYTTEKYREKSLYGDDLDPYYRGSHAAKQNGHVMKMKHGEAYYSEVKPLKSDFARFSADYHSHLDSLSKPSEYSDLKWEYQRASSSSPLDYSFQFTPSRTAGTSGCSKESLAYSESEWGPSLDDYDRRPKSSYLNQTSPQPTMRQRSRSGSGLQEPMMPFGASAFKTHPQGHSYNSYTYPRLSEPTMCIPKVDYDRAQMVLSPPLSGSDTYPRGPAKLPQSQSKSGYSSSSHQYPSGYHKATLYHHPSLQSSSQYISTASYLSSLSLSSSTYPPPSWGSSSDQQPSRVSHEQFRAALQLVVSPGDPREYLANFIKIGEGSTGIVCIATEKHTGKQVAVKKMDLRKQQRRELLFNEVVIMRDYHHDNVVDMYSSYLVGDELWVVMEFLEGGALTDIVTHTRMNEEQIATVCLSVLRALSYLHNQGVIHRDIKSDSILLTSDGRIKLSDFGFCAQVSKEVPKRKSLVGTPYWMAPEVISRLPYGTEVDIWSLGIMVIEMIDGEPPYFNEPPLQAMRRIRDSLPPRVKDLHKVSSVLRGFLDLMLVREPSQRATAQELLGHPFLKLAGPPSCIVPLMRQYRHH
Chain of UniProt Q00535 (whole entry, looked up): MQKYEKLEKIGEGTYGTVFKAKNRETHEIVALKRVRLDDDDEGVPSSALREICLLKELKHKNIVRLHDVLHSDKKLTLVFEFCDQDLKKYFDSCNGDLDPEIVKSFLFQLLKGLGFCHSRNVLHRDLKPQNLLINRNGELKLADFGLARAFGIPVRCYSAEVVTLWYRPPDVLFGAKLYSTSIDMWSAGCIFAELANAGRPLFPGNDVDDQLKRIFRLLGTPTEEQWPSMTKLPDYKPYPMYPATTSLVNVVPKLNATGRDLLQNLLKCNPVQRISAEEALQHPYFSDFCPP
Chain of UniProt O15197 (whole entry, looked up): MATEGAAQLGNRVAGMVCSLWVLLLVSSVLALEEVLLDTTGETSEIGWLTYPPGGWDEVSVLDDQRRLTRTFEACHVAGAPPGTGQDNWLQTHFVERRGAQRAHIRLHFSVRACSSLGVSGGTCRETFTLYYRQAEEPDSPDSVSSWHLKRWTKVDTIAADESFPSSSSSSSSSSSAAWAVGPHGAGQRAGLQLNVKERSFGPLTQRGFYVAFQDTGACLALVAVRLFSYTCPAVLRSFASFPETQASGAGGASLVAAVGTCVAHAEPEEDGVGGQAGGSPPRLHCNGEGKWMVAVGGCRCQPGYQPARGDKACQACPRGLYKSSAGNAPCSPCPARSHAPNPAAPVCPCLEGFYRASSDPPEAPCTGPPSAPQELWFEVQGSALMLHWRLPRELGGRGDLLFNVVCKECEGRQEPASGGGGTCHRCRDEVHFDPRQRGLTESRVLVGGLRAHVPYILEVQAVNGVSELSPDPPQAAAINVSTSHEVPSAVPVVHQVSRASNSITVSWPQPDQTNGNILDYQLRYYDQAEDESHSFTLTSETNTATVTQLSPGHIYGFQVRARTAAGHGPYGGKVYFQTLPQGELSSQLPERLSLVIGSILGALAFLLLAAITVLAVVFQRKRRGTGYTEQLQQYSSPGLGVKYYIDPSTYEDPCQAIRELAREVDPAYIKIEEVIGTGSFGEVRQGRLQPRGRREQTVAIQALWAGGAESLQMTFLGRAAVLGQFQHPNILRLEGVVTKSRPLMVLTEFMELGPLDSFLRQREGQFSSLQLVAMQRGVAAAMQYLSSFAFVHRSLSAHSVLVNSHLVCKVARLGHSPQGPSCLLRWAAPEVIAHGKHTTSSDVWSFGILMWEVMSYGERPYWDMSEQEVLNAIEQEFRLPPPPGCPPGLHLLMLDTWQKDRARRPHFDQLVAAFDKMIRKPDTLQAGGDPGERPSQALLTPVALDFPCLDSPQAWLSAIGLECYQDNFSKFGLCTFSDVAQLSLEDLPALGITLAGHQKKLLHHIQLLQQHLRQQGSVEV
Chain of UniProt Q99640 (whole entry, looked up): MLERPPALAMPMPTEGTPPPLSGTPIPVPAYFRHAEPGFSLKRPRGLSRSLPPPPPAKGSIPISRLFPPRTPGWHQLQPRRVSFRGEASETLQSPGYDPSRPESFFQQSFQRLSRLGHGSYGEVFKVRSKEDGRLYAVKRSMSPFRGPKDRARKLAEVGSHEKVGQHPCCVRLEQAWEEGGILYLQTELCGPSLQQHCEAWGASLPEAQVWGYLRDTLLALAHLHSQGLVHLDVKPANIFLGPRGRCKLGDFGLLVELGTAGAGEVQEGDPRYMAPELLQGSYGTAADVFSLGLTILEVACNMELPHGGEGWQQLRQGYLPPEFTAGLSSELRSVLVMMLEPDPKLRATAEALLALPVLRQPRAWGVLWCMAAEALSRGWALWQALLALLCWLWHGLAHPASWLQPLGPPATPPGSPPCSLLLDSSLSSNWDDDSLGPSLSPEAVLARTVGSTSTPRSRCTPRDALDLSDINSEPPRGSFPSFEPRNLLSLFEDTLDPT

Set 1 — dose: dose not given; reference: vehicle
SMILES: CC(=O)N[C@@H](Cc1c[nH]c2ccccc12)C(=O)N[C@@H](CCC(=O)C=[N+]=[N-])C(=O)OC(C)C
For measured: 6-phosphogluconate; mouse, EL4 tumour-bearing, EL4 tumour: “log2 fold change” read 1.03.
measured: phosphoenolpyruvate; mouse, EL4 tumour, tumour — “log2 fold change”: 0.761.
The “log2 fold change” was 0.249 (measured: lysine; mouse, EL4 tumour-bearing, EL4 tumour).
It gave 0.0271 for “log2 fold change” (measured: hydroxymethylpyrimidine; mouse, EL4 tumour-bearing, EL4 tumour).
For metabolomics, measured: 3-phenylpropionate; mouse, EL4 tumour: “log2 fold change” read -0.848.
measured: 4-hydroxy-nonenal-glutathione; mouse, EL4 tumour-bearing, EL4 tumour — “log2 fold change”: 0.0823.
For measured: p-cresol sulfate; mouse, EL4 tumour-bearing, EL4 tumour: “log2 fold change” read -0.714.
It gave -1.16 for “log2 fold change” (measured: reduced glutathione; Mus musculus, EL4 tumour).
The “log2 fold change” was -0.0269 (measured: N-acetyl-1-methylhistidine*; mouse, EL4 tumour-bearing, EL4 tumour).
The “log2 fold change” was 0.426 (measured: gulonate*; mouse, EL4 tumour-bearing, EL4 tumour).
The “log2 fold change” was -0.432 (measured: N-alpha-acetylornithine; mouse, EL4 tumour-bearing, EL4 tumour).
It gave -0.635 for “log2 fold change” (measured: homocitrulline; mouse, EL4 tumour-bearing, EL4 tumour).
The “log2 fold change” was 0.422 (measured: histamine; mouse, EL4 tumour-bearing, EL4 tumour).
The “log2 fold change” was -0.243 (measured: isocitrate; mouse, EL4 tumour-bearing, EL4 tumour).
The “log2 fold change” was 0.305 (measured: spermine; mouse, EL4 tumour-bearing, EL4 tumour).
The “log2 fold change” was 0.649 (measured: acetylphosphate; mouse, EL4 tumour-bearing, EL4 tumour).

Set 2 — observed: enzyme activity; mode: inhibitor; tested at: 0.5 µM; reference: control
Target: Fibroblast growth factor receptor 2 (FGFR2, Homo sapiens, UniProt P21802)
Chain of UniProt P21802 (whole entry, looked up): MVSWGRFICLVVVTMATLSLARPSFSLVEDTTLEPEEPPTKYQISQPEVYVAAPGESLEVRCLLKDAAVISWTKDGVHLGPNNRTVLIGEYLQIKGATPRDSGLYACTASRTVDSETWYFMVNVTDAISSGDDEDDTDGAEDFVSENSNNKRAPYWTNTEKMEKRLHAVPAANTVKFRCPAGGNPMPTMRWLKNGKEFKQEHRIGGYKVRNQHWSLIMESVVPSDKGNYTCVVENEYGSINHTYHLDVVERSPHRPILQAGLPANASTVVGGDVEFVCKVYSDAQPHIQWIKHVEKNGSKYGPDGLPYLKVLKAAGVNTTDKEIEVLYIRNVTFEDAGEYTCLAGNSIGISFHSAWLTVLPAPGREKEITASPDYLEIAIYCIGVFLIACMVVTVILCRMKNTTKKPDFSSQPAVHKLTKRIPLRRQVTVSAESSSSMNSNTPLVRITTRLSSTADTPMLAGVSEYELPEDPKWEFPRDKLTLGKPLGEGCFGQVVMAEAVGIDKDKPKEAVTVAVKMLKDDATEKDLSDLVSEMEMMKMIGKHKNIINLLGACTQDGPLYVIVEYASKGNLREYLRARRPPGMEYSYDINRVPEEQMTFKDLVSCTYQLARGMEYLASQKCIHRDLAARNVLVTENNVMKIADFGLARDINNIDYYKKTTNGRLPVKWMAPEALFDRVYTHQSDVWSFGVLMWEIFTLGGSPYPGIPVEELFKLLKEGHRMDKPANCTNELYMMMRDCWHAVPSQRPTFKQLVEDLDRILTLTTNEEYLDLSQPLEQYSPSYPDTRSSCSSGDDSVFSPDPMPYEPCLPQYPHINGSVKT
For `CCCCc1c(-c2ccc(OC)cc2)[nH]c2nccnc12`, the remaining activity was 89.5%.
`c1ccc2c(-c3ccncc3)c[nH]c2c1` has a remaining activity of 105%.
With `O=Nc1c(-c2c(O)[nH]c3cc(Br)ccc23)[nH]c2ccccc12` the remaining activity was 59.2%.
With `O=C1Nc2ccccc2/C1=C\c1c(Cl)[nH]c2ccccc12` the remaining activity was 102%.
The remaining activity of `COc1ccc2c(c1)c(C1=C(c3c[nH]c4ccccc34)C(=O)NC1=O)cn2CCCN(C)C` is reported as 90.7%.
`Cc1ccc(S(=O)(=O)/C=C/C#N)cc1` gave a remaining activity of 102%.
`O=C(c1cc2cc(O)ccc2[nH]1)c1cc2cc(O)ccc2[nH]1` gave a remaining activity of 98.5%.
For `O=C1Nc2ccc(Br)cc2/C1=C/c1cc2c([nH]1)CCCC2`, the remaining activity was 87.4%.
The remaining activity of `Oc1cccc(-c2nc(N3CCOCC3)c3oc4ncccc4c3n2)c1` is reported as 95.7%.
`O=C1NC(=O)c2c1c1c3ccccc3[nH]c1n1cncc21` gave a remaining activity of 91.3%.
`O=c1cc(N2CCOCC2)oc2c(-c3ccccc3)cccc12` gave a remaining activity of 95.8%.
`COc1cccc(-c2cc(=O)c3ccccc3o2)c1N` gave a remaining activity of 97.8%.
`N#Cc1cnc2cnc(NCc3cccnc3)cc2c1Nc1ccc(F)c(Cl)c1` has a remaining activity of 103%.
`CCCNC(=O)Nc1ccc(Oc2ncnc3cc(OC)c(OC)cc23)cc1Cl` has a remaining activity of 91.3%.
With `c1ccc(-c2n[nH]c3c2oc2ccccc23)cc1` the remaining activity was 97%.
The remaining activity of `CN(C)S(=O)(=O)c1ccc2c(c1)/C(=C/c1cc3c([nH]1)CCCC3)C(=O)N2` is reported as 49.3%.
The remaining activity of `O=C1Cc2c([nH]c3ccc(Br)cc23)-c2ccccc2N1` is reported as 100%.

Set 3 — observed: cell-free assay; technique: competition with immobilised ligand; tested at: 1 µM
SMILES: CCOCCn1cc(C(=O)Nc2ccc(-n3nc(-c4cccnc4)cc3C(F)(F)F)cn2)ccc1=O
MAPK3 (Homo sapiens, UniProt P27361) — remaining binding: 100%.
For CDK5 (Homo sapiens, UniProt Q00535): remaining binding read 100%.
It gave 100% for remaining binding (PKMYT1 (Homo sapiens, UniProt Q99640)).
GRK2 (Homo sapiens, UniProt P25098) — remaining binding: 75%.
PTK2B (Homo sapiens, UniProt Q14289) — remaining binding: 100%.
It gave 100% for remaining binding (CSF1R (Homo sapiens, UniProt P07333)).
EPHB6 (Homo sapiens, UniProt O15197) — remaining binding: 94%.
The remaining binding was 92% (FLT3 (Homo sapiens, UniProt P36888, N841I)).
CDK11B (Homo sapiens, UniProt P21127) — remaining binding: 100%.
For PAK5 (Homo sapiens, UniProt Q9P286): remaining binding read 98%.
For BRAF (Homo sapiens, UniProt P15056): remaining binding read 95%.
The remaining binding was 100% (FLT3 (Homo sapiens, UniProt P36888, R834Q)).
For ALK (Homo sapiens, UniProt Q9UM73): remaining binding read 79%.
The remaining binding was 96% (Tyrosine-protein kinase ABL1, non-phosphorylated (ABL1, Homo sapiens, UniProt P00519, T315I)).
For MAP4K3 (Homo sapiens, UniProt Q8IVH8): remaining binding read 85%.

Set 4 — observed: enzyme activity; mode: inhibitor; tested at: 10 µM
Target: Calcium/calmodulin-dependent protein kinase type II subunit alpha (CAMK2A, Homo sapiens, UniProt Q9UQM7)
Chain of UniProt Q9UQM7 (whole entry, looked up): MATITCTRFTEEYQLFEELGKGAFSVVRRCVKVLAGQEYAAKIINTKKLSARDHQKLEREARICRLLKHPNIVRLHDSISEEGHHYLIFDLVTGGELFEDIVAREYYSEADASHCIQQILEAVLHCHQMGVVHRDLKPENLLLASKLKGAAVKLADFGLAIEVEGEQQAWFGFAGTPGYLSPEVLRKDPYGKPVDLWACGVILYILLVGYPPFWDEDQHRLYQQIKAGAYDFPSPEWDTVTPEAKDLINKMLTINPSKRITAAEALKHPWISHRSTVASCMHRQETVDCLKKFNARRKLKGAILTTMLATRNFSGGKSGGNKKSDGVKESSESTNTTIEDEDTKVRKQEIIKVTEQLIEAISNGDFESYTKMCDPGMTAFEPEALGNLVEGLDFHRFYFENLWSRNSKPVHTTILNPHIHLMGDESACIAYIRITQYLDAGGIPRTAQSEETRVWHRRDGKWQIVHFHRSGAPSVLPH
`O=C(O)c1ccc(O)cc1` gave an inhibition of 3%.
`C[C@H](CCC(=O)O)[C@H]1CC[C@H]2[C@@H]3[C@H](O)C[C@H]4C[C@H](O)CC[C@]4(C)[C@H]3C[C@H](O)[C@]12C` has an inhibition of -34%.
The inhibition of `CCN(CC)C(=S)SSC(=S)N(CC)CC` is reported as -10%.
`COc1ccc(-c2cc(=O)c3c(O)c(OC)c(OC)cc3o2)cc1OC` gave an inhibition of 1%.
With `c1ccc(CC2=NCCN2)cc1` the inhibition was -7%.
`COC(=O)c1ccc(O)cn1` gave an inhibition of 12%.
The inhibition of `C[C@@H]1O[C@@H](O[C@@H]2C(=O)c3c(O)cc(O)cc3O[C@H]2c2cc(O)cc(O)c2)[C@H](O)[C@H](O)[C@H]1O` is reported as -12%.
The inhibition of `N#CS` is reported as 7%.
For `O[C@H]1[C@H]2c3cc4c(cc3CN3CC[C@H](C[C@@H]1O)[C@H]23)OCO4`, the inhibition was -3%.
For `OC[C@H]1O[C@@H](Oc2cc(O)cc(/C=C/c3ccc(O)cc3)c2)[C@H](O)[C@@H](O)[C@@H]1O`, the inhibition was -5%.
The inhibition of `CC(=O)Nc1c(I)cc(I)c(C(=O)O)c1I` is reported as -1%.
The inhibition of `Cc1onc(-c2ccccc2)c1C(=O)N[C@@H]1C(=O)N2[C@@H]1SC(C)(C)[C@@H]2C(=O)O` is reported as 8%.
